Measurements gathered from unrelated publications.
Numbered parts are unrelated; each lists some results of a single study. Substitutions count along the parent as printed.

Set 1 — target: UBE2D4 UBC core domain (UniProt Q9Y2X8); method: yeast two-hybrid; matrix: yeast; setting: mostly zero background; relative to: not given; direction: higher = stronger interaction
B1: Ltn1 RING domain (UniProt Q6A009); chain VDKRFEGVEDCMICFSVIHGFNYSLPKKACRTCKKKFHSACLYKWFTSSNKSTCPLCRETFF
B2: TRIM22 RING domain (UniProt Q8IYM9); chain KEVKMSPQEGQKRDVCEHHGKKLQIFCKEDGKVICWVCELSQEHQGHQTFRINEVVKECQEK
B3: TRIM48 RING domain (UniProt Q8IWZ4); chain ISQVFQRELTCPICMNYFIDPVTIDCGHSFCRPCFYLNWQDIPILTQCFECIKTIQQRNLKT
Residues (chain): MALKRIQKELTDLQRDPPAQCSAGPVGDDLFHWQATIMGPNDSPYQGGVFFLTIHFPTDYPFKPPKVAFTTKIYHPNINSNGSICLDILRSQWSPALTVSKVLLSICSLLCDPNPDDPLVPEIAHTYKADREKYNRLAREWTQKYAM
Sequence	lacZ reporter activity
NTAPSLTVPECAICLQTCVHPVSLPCKHVFCYLCVKGASWLGKRCALCRQEIPEDFLDK (RNF146 RING domain (UniProt Q9NTX7))	0
KITELNPHLMCVLCGGYFIDATTIIECLHSFCKTCIVRYLETSKYCPICDVQVHKTRPLL (BMI1 RING domain (UniProt P35226))	0
KEQLEKHNDICAICYQDMKSAVITPCSHFFHAGCLKKWLYVQETCPLCHCHLKNSSQLP (RNF145 RING domain (UniProt Q96MT1))	0
MDDQGCPRCKTTKYRNPSLKLMVNVCGHTLCESCVDLLFVRGAGNCPECGTPLRKSNFRV (MNAT1 RING domain (UniProt P51948))	0
B1 (Ltn1 RING domain)	0
B2 (TRIM22 RING domain)	0
B3 (TRIM48 RING domain)	0
KLWDINAHITCRLCSGYLIDATTVTECLHTFCRSCLVKYLEENNTCPTCRIVIHQSHPLQ (PCGF3 RING domain (UniProt Q3KNV8))	0

Set 2 — target: CCNB1, cyclin fold, Cln2 fusion (human); method: yeast growth competition, sequencing; matrix: yeast; setting: strong parent motif; relative to: not given; direction: higher = stronger binding
Parent: viral docking peptide; TSVRRALFTGGSD; partner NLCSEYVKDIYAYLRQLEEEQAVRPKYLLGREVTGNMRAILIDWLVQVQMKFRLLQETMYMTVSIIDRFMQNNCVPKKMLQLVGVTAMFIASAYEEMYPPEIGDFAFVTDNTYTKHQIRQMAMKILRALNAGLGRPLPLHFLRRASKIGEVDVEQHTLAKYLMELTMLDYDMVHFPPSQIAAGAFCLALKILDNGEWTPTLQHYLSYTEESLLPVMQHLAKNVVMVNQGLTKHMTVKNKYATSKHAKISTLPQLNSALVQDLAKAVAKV
Substitution	normalised enrichment score
S2R	1.67
V3I	1.53
R4N	1.54
G10C	2.02
S2N	2.24
L7H	0.202
F8V	0.0482
V3K	0.494

Set 3 — read-out: peptide-MHC binding; molecule type: peptide; tested at: concentration not given
Target: HLA class I histocompatibility antigen, A alpha chain, allele A*25:01 (Homo sapiens, UniProt P04439)
Sequence	binding
RLLRFTGLF	inactive
FIVEHINAM	active
LESLTDREL	inactive
LTDRELLLL	inactive
MQGKDFNHL	inactive
YLHIHPFKI	inactive
WAKLLKQKW	inactive
TMMRHRREL	inactive

Other studies, line by line
SMILES	cell line	setting	scale	measurement	result
NC12CC3CC(CC(C3)C1)C2	HEK-293T/ACE2	10 µM, 16 h	relative to: vehicle	viability	95.1%

Some of these lines once more (set 1):
Sequence	lacZ reporter activity
KITELNPHLMCVLCGGYFIDATTIIECLHSFCKTCIVRYLETSKYCPICDVQVHKTRPLL (BMI1 RING domain (UniProt P35226))	0
